Experimental data from different studies.
Each line is one published result; not all experiments were run side by side. “And” joins repeats or separate records; there may be more than shown. ± marks the error that the study gave.
POLB: DNA polymerase beta (POLB, Homo sapiens, UniProt P06746)
SCTR: Secretin receptor (SCTR, Homo sapiens, UniProt P47872)
T1: ssRNA FMR1 5' UTR CGG repeat (Homo sapiens); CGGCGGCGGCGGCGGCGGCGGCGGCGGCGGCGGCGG

O=C(Nc1ccc2ncccc2c1)c1ccc(-c2ccc(Cl)cc2)o1  activation (Nuclear receptor subfamily 4 group A member 2, ligand binding domain (Homo sapiens, UniProt P43354); reporter gene, agonist, Gal4-Nurr1 hybrid reporter; HEK-293T; 3 µM, crude library product; baseline: vehicle (0.1% DMSO)): ≤ 1.5 fold
S=C(Nc1ccc(Cl)cc1)Nc1cccc2[nH]ccc12  oligomer formation (MAPT (Homo sapiens, UniProt P10636); PICUP cross-linking; up to 200 µM, with: MAPT 6 µM): no effect
Cc1cn(C2CC(O)C(COP(=O)(O)OP(=O)(O)C(Cl)P(=O)(O)O)O2)c(=O)[nH]c1=O (mixture of isomers)  kpol (POLB; nucleotide incorporation rate, substrate, single-turnover kinetics; single-nucleotide gapped DNA; 37 °C, wild type, correct incorporation, with: dTTP opposite template A): 5.9 ± 0.5 s⁻¹
CC(C)C[C@@H](NC(=O)[C@@H](CC(=O)O)NC(=O)c1ccc(S(N)(=O)=O)cc1)C(=O)N[C@H](CC(=O)O)C(=O)N[C@H](CC(=O)O)C(=O)N[C@H](Cc1ccc(O)cc1)C(N)=O  potency increase (CA2 (Homo sapiens, UniProt P00918); esterase activity, inhibitor; baseline: 4-aminobenzenesulfonamide): ~17 fold
CC(C)CCC[C@@H](C)[C@H]1CC[C@H]2[C@@H]3CC=C4C[C@@H](OS(=O)(=O)O)CC[C@]4(C)[C@H]3CC[C@]12C  Hill slope (Prothrombin (F2, Homo sapiens, UniProt P00734); enzyme activity, inhibitor, chromogenic substrate; pH 7.4, 25 °C, 0.02% Tween 80): 2.8 ± 0.4
CCCN(CC(=O)N(CCC)CC(=O)N(CCC)CC(=O)N(CC(N)=O)Cc1cn(CCCNC(=O)CCCOc2cccc(-c3nc4ccc(-c5nc6ccc(N7CCN(C)CC7)cc6[nH]5)cc4[nH]3)c2)nn1)C(=O)CNCc1cn(CCCNC(=O)CCCOc2cccc(-c3nc4ccc(-c5nc6ccc(N7CCN(C)CC7)cc6[nH]5)cc4[nH]3)c2)nn1  IC50 (T1, ssRNA FMR1 5' UTR CGG repeat (Homo sapiens); protein displacement, competitor, TR-FRET): 18 µM
COc1ccc(-c2cc(C(F)(F)F)nc(S(=O)(=O)NCC(=O)Nc3ccc(C)cc3)n2)cc1  kinact (WRN (Homo sapiens, UniProt Q14191); enzyme activity, inhibitor): 0.00035 s⁻¹
CCN1C(=O)N(c2cc(NC(=O)c3cccc(C(F)(F)F)c3)ccc2C)Cc2cnc(Nc3ccc(C)nc3)nc21  GI50 (FGFR4/Transcription factor ETV6 (Homo sapiens, UniProt P22455+P41212); cell growth; Ba/F3 expressing TEL-FGFR4; 72 h): 0.02 µM
CNc1ccccc1C(=O)O[C@H]1C[C@H](n2cnc3c(N)ncnc32)O[C@@H]1COP(=O)(O)OP(=O)(O)O  slow phase amplitude (Unconventional myosin-Va (Gallus gallus, UniProt Q02440, D297C/G292C/I296C/S293C/V295G); stopped-flow FRET; 4–15 °C, with: 4 mM EDTA; baseline: total): ~5%
CC(C)(C)CCN1C[C@@H]2[C@@H](CNC(=O)c3cc(Cl)cc(Cl)c3)[C@@H]2C1.Cl  Hill slope (Voltage-dependent L-type calcium channel subunit alpha-1F (Homo sapiens, UniProt O60840); calcium current inhibition, whole-cell patch clamp; HEK-293T cells; with: β2 and α2δ subunits): 0.46 ± 0.05
COc1cc(Cl)ccc1NC(=O)CCCS(=O)(=O)c1nc(-c2ccc(OC)c(OC)c2)cc(C(F)(F)F)n1  Emax (SCTR; increase of tracer binding, TR-FRET; HEK293 membranes; with: Fluo-Sec 6 nM): 128 ± 15%
CC(P(=O)(O)O)P(=O)(O)OP(=O)(O)OCC1OC(n2cnc3c(=O)[nH]c(N)nc32)CC1O (mixture of isomers)  kpol (DNA polymerase beta (POLB, Homo sapiens, UniProt P06746, I260M); nucleotide incorporation rate, substrate, single-turnover kinetics; single-nucleotide gapped DNA; 37 °C, I260M, misincorporation, with: dGTP opposite template A): 0.0006 ± 8e-05 s⁻¹
c1ccc(-c2nn[nH]c2-c2ccccc2)cc1  Ca2+ dissociation rate (Troponin C, slow skeletal and cardiac muscles, with cTnI (TNNC1, Human, UniProt P63316, C35S/C84S/T53C); stopped-flow fluorescence; 50 µM, IAANS-labelled chimera): 51.8 ± 0.4 s⁻¹
CC(C)Cc1ccc(S(=O)(=O)N2CCN(Cc3noc(CCC(=O)NC4CCCCC4)n3)CC2)cc1  current fold increase (KCNQ2 (Homo sapiens, UniProt O43526); potassium current, activator, whole-cell patch clamp; CHO, stable; 20 µM; baseline: current before compound): 1.08 ± 0.08
CC(=O)NCCc1ccc(O)c(O)c1  maximal inhibition (Carbamate kinase (Giardia intestinalis, UniProt A8BB85); enzyme activity, inhibitor, luminescence, ATP detection; Giardia lamblia): 77.3%
COc1ccc(CNc2nc(-c3ccc(OC)cc3)cc(C(F)(F)F)n2)cc1  Emax (SCTR; cAMP, agonist): 17%
Nc1nc2c(ncn2[C@H]2C[C@H](O)[C@@H](COP(=O)(O)OP(=O)(O)[C@@H](Cl)P(=O)(O)O)O2)c(=O)[nH]1  kpol (POLB; substrate, quench-flow kinetics; pH 8.0, 37 °C, misincorporation opposite T in gapped DNA): 0.051 ± 0.003 s⁻¹
Cc1csc(CCCNc2nc3c(c(=O)[nH]2)[n+](C)cn3C2OC(COP(=O)(O)OP(=O)([O-])OP(=O)(O)OCC3OC(n4cnc5c(=O)[nH]c(N)nc54)C(O)C3O)C(O)C2O)n1 (centres unmarked)  relative affinity (Eif4e (Mus musculus, UniProt P63073); differential scanning fluorimetry; baseline: m7GpppG): ~1.7
CC(=O)NCC(=O)N[C@@H](CC(=O)O)C(=O)N[C@@H](Cc1ccc(O)cc1)C(=O)N[C@@H](CO)C(=O)N[C@@H](Cc1c[nH]cn1)C(=O)N[C@H]1CSSC[C@@H](C(=O)N[C@H](C(=O)N[C@@H](Cc2ccc(O)cc2)C(=O)N2CCC[C@H]2C(=O)N[C@@H](CC(=O)O)C(=O)N2CCC[C@H]2C(=O)N[C@@H](CCC(=O)O)C(=O)NCC(=O)NCC(=O)NCC(N)=O)[C@@H](C)O)NC(=O)[C@H](CCCCN)NC(=O)[C@H](Cc2c[nH]c3ccccc23)NC(=O)[C@H](Cc2c[nH]c3ccccc23)NC(=O)[C@@H]2CCCN2C(=O)[C@H](Cc2ccc(O)cc2)NC(=O)[C@H](Cc2ccc(O)cc2)NC(=O)[C@H](CCCNC(=N)N)NC(=O)[C@H](CC(C)C)NC(=O)[C@@H]2CCCN2C(=O)[C@H](CO)NC1=O  maximum inhibition (Angiotensin-converting enzyme (Mus musculus, UniProt P09470); enzyme activity; mouse Lin- cell lysate; 4 h): 7 ± 1%
COc1ccc(-c2cc(C(F)(F)F)nc(S(=O)(=O)CCCC(=O)Nc3ccccc3F)n2)cc1OC  Emax (SCTR; increase of tracer binding, TR-FRET; HEK293 membranes; with: Fluo-Sec 6 nM): 148 ± 13%
CC(=O)c1cc(O)c(=O)c(O)cc1C  maximum inhibition (Ribonuclease H1 (Homo sapiens, UniProt O60930); enzyme activity, inhibitor, FRET heteroduplex cleavage): ~95% and 95%
Oc1c(C(Nc2nc3ccccc3s2)c2ccccc2OCc2ccccc2)ccc2cccnc12 (centres unmarked)  Hill slope (Genome polyprotein, NS2B-NS3 protease (Dengue virus type 2, UniProt P14340); enzyme activity, inhibitor; no CHAPS, with: Bz-Nle-Lys-Arg-Arg-AMC substrate): 1.24 ± 0.08
CC(/C=C/C(=O)NO)=C\[C@@H](C)C(=O)c1ccc(N(C)C)cc1  ΔCp (HDAC8 (Homo sapiens, UniProt Q9BY41); temperature-dependent ITC; Tris-HCl buffer; range from 5 °C): -0.21 ± 0.01 kcal mol^–1 K^–1
Cc1ncsc1-c1ccc([C@H](C)NC(=O)[C@@H]2C[C@@H](O)CN2C(=O)[C@@H](NCC(=O)N2CCC(c3cc(Nc4cc(C#N)ccn4)nc(N4CCC(F)(F)C4)c3)CC2)C(C)(C)C)cc1  lowest degrading concentration (MAP3K13 (Homo sapiens, UniProt O43283); protein degradation, degrader, Western blot; CAL-33, dox-induced MAP3K13 overexpression; 24 h): 500 nM
CC[C@H](C)[C@H](NC(=O)[C@H](CO)NC(=O)CNC(=O)[C@H](CCCNC(=N)N)NC(=O)CNC(=O)[C@H](C)NC(=O)CNC(=O)CCCCCNC(=O)CCCC[C@@H]1SC[C@@H]2NC(=O)N[C@@H]21)C(=O)N[C@@H](CC(=O)O)C(=O)N[C@H](C(=O)N[C@@H](Cc1c[nH]c2ccccc12)C(=O)N[C@H](C(=O)O)C(C)C)[C@@H](C)O  mean bright time (Erbin, PDZ domain (ERBIN, Homo sapiens, UniProt Q96RT1); PDZ-mNG binding, DNA-PAINT; with: 26 nM PDZ-mNG): 159 ± 39 ms
Cc1cn([C@H]2C[C@H](O)[C@@H](COP(=O)(O)OP(=O)(O)C(F)(F)P(=O)(O)O)O2)c(=O)[nH]c1=O  kpol (POLB; nucleotide incorporation rate, substrate, single-turnover kinetics; single-nucleotide gapped DNA; 37 °C, wild type, correct incorporation, with: dTTP opposite template A): 14.6 ± 1.8 s⁻¹
O=C(O)CCn1c2ccc(Br)cc2c2cc(Br)ccc21  Hill coefficient (Kcnk2 (Mus musculus, UniProt P97438); ion current, two-electrode voltage clamp; Xenopus oocytes): 2.2 ± 0.5
O=P(O)(O)O[C@@H]1[C@@H](O)[C@H](O)[C@H](O)[C@H](O)[C@H]1OP(=O)(O)O  Hill coefficient (Itpr1 (Rattus norvegicus, UniProt P29994); Ca2+ release; DT40-IP3R1, permeabilized): 1.4 ± 0.2
CC1(C)CCN(Cc2ccc(C(=O)NC[C@]3(O)CCCN(c4cc(NCc5ccccc5)ncn4)C3)c(O)c2)CC1  remaining activity (Cyclin-dependent kinase 2, with cyclin A (CDK2, Homo sapiens, UniProt P24941); kinase activity, radiometric; 10 µM, with: 10 µM ATP): 83%
